Published values collected from several papers.
Protocols differ between the studies behind these lines. ± gives the spread as reported.
CA1: Carbonic anhydrase 1 (CA1, Homo sapiens, UniProt P00915)
alpha-carbonic anhydrase: alpha-carbonic anhydrase (Enterococcus faecium, UniProt Q3XYE8)

Sequences of proteins named here, by UniProt entry; tags and fusion partners are left off. Residues count along the entry.
UniProt P00915, whole entry: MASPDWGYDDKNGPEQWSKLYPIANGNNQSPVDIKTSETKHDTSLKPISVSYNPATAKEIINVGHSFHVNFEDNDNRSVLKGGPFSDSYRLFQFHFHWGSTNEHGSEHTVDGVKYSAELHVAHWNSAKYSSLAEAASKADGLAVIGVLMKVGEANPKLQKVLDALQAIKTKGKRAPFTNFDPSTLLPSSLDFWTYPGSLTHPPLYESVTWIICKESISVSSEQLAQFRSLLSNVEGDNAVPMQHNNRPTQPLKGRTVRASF
UniProt Q3XYE8, 1-234: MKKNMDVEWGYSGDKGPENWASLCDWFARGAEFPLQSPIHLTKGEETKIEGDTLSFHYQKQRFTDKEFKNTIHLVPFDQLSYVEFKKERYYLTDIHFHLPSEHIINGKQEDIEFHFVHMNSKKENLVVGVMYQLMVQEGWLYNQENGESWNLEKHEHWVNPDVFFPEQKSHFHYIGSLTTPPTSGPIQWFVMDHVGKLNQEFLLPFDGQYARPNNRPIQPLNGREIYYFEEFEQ
UniProt P25090, whole entry: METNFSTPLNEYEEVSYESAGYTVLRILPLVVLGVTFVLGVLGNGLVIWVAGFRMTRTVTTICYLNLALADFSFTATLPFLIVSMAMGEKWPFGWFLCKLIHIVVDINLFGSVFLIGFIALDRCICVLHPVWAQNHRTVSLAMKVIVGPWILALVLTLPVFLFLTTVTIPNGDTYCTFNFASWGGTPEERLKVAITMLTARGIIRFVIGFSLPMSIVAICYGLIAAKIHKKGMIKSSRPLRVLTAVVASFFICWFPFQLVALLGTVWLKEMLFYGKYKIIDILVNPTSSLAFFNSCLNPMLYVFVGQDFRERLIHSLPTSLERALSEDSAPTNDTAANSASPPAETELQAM
UniProt P14416, whole entry: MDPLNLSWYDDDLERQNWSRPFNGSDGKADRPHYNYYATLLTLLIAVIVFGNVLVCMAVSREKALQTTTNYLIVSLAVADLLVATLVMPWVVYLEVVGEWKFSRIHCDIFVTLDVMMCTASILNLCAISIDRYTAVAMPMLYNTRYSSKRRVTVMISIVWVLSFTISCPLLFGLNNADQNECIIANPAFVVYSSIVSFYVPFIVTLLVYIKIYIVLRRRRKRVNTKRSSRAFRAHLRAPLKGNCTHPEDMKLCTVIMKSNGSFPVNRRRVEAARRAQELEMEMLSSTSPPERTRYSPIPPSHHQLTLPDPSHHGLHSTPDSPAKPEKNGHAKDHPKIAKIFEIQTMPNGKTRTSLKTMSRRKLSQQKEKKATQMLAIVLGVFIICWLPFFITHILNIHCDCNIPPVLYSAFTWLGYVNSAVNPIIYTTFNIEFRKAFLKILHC
UniProt P00492, whole entry: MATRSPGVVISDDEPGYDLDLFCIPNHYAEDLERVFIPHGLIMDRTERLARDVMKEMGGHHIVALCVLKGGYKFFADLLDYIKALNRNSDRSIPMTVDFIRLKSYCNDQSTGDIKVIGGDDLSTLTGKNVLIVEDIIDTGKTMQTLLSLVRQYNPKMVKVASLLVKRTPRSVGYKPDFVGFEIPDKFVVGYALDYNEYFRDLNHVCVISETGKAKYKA
UniProt P04415, whole entry: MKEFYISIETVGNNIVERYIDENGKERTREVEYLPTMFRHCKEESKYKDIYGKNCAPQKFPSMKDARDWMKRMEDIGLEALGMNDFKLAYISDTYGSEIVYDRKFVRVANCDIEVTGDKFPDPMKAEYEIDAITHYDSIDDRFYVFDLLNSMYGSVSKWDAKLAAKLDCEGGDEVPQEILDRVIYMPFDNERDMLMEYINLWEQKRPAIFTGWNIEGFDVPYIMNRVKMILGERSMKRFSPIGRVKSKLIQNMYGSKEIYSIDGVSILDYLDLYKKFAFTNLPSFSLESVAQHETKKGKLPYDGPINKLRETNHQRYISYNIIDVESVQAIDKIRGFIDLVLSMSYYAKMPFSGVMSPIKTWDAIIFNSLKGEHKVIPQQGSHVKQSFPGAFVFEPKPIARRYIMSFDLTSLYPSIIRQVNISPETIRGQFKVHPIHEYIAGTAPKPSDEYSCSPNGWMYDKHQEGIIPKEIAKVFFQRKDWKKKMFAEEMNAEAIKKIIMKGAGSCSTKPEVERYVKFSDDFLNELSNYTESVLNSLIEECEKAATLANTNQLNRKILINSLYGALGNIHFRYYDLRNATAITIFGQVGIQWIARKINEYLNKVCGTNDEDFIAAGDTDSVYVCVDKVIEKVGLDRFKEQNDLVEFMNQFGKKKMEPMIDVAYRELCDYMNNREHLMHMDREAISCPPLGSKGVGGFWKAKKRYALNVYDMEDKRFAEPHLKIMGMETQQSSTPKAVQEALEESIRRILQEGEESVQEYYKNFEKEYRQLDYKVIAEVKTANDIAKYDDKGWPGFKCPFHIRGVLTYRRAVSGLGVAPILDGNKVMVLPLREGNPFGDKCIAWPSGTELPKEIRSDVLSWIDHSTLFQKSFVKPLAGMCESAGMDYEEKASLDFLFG
UniProt Q16539, whole entry: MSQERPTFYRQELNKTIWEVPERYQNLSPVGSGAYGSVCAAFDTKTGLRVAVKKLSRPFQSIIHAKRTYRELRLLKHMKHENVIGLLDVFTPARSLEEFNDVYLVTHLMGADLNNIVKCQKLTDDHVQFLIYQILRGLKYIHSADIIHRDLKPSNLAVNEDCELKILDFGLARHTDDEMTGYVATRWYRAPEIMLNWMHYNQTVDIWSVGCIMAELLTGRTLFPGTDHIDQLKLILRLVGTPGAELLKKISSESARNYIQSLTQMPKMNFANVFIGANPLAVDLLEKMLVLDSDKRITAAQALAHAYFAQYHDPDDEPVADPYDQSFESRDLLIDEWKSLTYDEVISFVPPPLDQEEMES
UniProt Q5BJF2, whole entry: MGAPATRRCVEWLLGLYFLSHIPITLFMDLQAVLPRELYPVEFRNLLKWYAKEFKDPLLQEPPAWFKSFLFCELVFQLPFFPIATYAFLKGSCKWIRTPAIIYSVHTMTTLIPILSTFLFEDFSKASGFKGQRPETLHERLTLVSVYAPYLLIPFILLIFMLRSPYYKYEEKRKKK
UniProt O96013, whole entry: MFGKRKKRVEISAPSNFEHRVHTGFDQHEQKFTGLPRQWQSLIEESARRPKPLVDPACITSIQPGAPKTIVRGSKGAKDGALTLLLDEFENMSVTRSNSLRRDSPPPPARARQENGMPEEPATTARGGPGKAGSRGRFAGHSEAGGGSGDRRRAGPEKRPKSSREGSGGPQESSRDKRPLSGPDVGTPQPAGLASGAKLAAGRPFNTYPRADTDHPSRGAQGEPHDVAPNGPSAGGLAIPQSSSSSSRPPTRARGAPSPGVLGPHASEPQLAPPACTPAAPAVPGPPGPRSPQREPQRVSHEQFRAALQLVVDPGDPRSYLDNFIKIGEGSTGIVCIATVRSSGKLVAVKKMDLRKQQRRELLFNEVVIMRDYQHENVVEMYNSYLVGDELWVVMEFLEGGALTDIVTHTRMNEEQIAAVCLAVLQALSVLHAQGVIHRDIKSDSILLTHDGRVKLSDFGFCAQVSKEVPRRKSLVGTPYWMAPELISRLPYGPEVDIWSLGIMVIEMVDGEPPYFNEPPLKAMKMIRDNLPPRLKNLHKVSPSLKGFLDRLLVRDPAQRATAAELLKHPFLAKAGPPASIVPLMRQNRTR
UniProt P19327, whole entry: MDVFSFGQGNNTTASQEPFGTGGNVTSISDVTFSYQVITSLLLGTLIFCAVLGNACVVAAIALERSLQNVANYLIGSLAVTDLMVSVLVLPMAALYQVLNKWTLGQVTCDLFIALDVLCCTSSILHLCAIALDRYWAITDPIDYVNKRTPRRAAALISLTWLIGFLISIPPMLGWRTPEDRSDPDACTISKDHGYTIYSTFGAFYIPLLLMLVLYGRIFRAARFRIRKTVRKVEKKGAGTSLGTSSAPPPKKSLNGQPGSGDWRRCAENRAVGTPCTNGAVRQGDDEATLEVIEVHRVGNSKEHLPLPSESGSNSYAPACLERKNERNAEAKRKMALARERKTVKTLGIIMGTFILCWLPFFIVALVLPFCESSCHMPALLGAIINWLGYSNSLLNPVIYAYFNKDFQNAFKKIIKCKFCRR
UniProt P21462, whole entry: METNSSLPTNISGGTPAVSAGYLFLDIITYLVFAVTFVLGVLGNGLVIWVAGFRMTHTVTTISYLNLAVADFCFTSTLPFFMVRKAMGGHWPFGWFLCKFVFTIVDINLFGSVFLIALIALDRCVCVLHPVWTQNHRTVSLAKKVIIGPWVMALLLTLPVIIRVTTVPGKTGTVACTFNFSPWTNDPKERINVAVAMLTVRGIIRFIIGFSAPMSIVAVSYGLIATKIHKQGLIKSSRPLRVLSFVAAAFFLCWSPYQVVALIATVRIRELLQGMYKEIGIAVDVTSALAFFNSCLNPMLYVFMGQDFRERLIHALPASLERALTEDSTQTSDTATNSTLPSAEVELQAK

CCc1cc2c(=O)c(-c3nc4ccccc4n3C)c(C)oc2cc1OC(C)=O  Ki (FPR2 (Homo sapiens, UniProt P25090); binding; above upper limit in 18 of 20 runs): > 17800 nM
CCn1c2c(c3ccccc31)CCN(CCCCNC(=O)c1ccc3[nH]c4ccccc4c3c1)C2  Ki (DRD2 (Homo sapiens, UniProt P14416); binding): > 10000 nM
O=c1[nH]cnc2c(CN[C@H](CO)CCP(=O)(O)O)c[nH]c12  Ki (Hypoxanthine-guanine phosphoribosyltransferase (Homo sapiens, UniProt P00492); enzyme activity, inhibitor, spectrophotometric): 385 nM
N#Cc1c(-c2ccc(Cl)cc2Cl)n(-c2nc(-c3ccc(Cl)cc3)c3c(NC(=O)c4ccccc4)nnc-3[nH]2)[nH]c1=O  cell growth (SNB-19; SRB; 10 µM): 31.1%
CC/C=C\C/C=C\CCC/C=C/C=C/C=C\CCCC(=O)O  IC50 (DNA-directed DNA polymerase (Enterobacteria phage T4, UniProt P04415); enzyme activity, inhibitor): > 100000 nM
CC(C)C[C@H](NC(=O)[C@H](C)NC(=O)[C@H](CCCNC(=N)N)NC(=O)[C@H](CCCNC(=N)N)NC(=O)[C@H](CCCNC(=N)N)NC(=O)[C@H](C)NC(=O)[C@H](CC(C)C)NC(=O)[C@H](CCCNC(=N)N)NC(=O)[C@H](CO)NC(=O)[C@H](CCCCN)NC(=O)[C@H](CO)NC(=O)Cn1cc(COC(=O)[C@]2(C)C=C(C(=O)OC(C)(C)C)C(=O)CC2)nn1)C(=O)O  Ki (MAPK14 (Homo sapiens, UniProt Q16539); D-peptide displacement, fluorescence polarization): ~3 nM
NS(=O)(=O)c1nnc(NC(=O)C2C3CC2C3)s1 (stereo not shown)  Ki (CA1; CO2 hydration, inhibitor, stopped-flow kinetics): 109 nM
CN1C(=O)CCc2cc(CNC(C)(C)[C@@H](O)c3ccccc3)ccc21  Ki (TMEM97 (Homo sapiens, UniProt Q5BJF2); binding, [3H]DTG displacement; Expi293 membranes): 4 nM
NS(=O)(=O)c1nnc(NC(=O)C2C3CC4CC(C3)CC2C4)s1 (stereo not shown)  Ki (CA1; CO2 hydration, inhibitor, stopped-flow kinetics): 195 nM
OC1(C#Cc2ccc3ccn(-c4ccnc(Nc5ccc(C(F)(F)F)cc5)n4)c3c2)CCCCC1  Ki (PAK4 (Homo sapiens, UniProt O96013); inhibitor, HTRF): 230 nM
CCOC(=O)c1c(-c2ccc(Cl)cc2Cl)n(-c2nc(-c3ccc(Cl)cc3)c3c(NC(=O)c4ccccc4)nnc-3[nH]2)[nH]c1=O  cell growth (SR; SRB; 10 µM): 7.2%
c1cnc2c(N3CCN(CCCN4CCN(c5cccc6sccc56)CC4)CC3)cccc2c1  Ki (Htr1a (Rattus norvegicus, UniProt P19327); binding): 58.5 ± 4.2 nM
NS(=O)(=O)c1nnc(NC(=O)CC2C3CC4CC(C3)CC2C4)s1 (stereo not shown)  Ki (alpha-carbonic anhydrase; CO2 hydration, inhibitor, stopped-flow kinetics): 36.9 nM
C=C(C)C(=O)Nc1ccc(-c2c(-c3ccc(Oc4nccc(C)n4)c(F)c3)c3c(N)ncnc3n2C)cc1  RAS-GTP level (MFE-280 (FGFR2-low); RAS-GTP pulldown; concentration not given): no effect
COc1ccc(-c2cn3cccnc3n2)cc1NC(=O)C(C)C  Ki (FPR1 (Homo sapiens, UniProt P21462); binding; above upper limit in 14 of 17 runs): > 13300 nM
CC(C)(CC(=O)Nc1nnc(S(N)(=O)=O)s1)C1CCCCC1  Ki (alpha-carbonic anhydrase; CO2 hydration, inhibitor, stopped-flow kinetics): 17.1 nM

Excerpt of the above:
CCc1cc2c(=O)c(-c3nc4ccccc4n3C)c(C)oc2cc1OC(C)=O  Ki (FPR2 (Homo sapiens, UniProt P25090); binding; above upper limit in 18 of 20 runs): > 17800 nM
CCn1c2c(c3ccccc31)CCN(CCCCNC(=O)c1ccc3[nH]c4ccccc4c3c1)C2  Ki (DRD2 (Homo sapiens, UniProt P14416); binding): > 10000 nM
O=c1[nH]cnc2c(CN[C@H](CO)CCP(=O)(O)O)c[nH]c12  Ki (Hypoxanthine-guanine phosphoribosyltransferase (Homo sapiens, UniProt P00492); enzyme activity, inhibitor, spectrophotometric): 385 nM
